Measurements pooled from the literature.
± marks the error that the study gave.
CHRM3: Muscarinic acetylcholine receptor M3 (CHRM3, Homo sapiens, UniProt P20309)
Chain of UniProt P20309 (whole entry, looked up): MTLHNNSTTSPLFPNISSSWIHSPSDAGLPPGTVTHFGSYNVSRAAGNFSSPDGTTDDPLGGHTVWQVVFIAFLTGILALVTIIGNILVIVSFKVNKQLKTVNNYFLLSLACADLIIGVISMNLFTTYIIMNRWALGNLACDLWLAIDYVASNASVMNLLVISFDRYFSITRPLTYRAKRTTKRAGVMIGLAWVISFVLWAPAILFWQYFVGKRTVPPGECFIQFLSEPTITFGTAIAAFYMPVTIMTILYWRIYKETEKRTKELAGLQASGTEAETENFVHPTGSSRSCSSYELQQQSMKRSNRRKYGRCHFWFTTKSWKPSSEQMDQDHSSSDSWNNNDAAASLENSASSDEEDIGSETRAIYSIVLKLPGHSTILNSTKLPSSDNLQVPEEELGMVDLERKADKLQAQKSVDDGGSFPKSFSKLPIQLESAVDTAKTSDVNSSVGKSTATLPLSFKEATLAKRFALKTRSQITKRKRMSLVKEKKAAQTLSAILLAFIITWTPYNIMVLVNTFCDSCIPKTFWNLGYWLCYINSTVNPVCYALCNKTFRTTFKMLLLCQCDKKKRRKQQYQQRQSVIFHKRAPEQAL
CHRM1: Muscarinic acetylcholine receptor M1 (CHRM1, Homo sapiens, UniProt P11229)
Chain of UniProt P11229 (whole entry, looked up): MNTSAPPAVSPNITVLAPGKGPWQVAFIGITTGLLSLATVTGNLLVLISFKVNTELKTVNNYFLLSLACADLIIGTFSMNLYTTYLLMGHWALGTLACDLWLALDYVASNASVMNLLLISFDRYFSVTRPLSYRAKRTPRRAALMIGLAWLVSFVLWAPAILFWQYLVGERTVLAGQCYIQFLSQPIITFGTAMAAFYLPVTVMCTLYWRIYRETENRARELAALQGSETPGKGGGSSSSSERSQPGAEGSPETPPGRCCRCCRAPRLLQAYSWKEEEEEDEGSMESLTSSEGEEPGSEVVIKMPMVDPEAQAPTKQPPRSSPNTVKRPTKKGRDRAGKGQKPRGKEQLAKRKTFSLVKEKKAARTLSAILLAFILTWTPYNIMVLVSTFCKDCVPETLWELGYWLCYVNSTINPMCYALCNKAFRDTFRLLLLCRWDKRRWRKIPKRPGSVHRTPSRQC
CASP3: Caspase-3 (CASP3, Homo sapiens, UniProt P42574)
Chain of UniProt P42574 (whole entry, looked up): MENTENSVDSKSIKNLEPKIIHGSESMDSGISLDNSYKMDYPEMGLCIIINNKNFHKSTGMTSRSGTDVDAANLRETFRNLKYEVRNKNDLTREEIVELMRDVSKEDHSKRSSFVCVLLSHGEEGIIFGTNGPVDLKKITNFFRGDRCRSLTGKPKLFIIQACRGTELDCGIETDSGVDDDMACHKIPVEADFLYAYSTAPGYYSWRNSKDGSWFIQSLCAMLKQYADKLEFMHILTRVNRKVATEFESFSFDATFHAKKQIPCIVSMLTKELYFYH
Chain of UniProt Q9Y2K7 (whole entry, looked up): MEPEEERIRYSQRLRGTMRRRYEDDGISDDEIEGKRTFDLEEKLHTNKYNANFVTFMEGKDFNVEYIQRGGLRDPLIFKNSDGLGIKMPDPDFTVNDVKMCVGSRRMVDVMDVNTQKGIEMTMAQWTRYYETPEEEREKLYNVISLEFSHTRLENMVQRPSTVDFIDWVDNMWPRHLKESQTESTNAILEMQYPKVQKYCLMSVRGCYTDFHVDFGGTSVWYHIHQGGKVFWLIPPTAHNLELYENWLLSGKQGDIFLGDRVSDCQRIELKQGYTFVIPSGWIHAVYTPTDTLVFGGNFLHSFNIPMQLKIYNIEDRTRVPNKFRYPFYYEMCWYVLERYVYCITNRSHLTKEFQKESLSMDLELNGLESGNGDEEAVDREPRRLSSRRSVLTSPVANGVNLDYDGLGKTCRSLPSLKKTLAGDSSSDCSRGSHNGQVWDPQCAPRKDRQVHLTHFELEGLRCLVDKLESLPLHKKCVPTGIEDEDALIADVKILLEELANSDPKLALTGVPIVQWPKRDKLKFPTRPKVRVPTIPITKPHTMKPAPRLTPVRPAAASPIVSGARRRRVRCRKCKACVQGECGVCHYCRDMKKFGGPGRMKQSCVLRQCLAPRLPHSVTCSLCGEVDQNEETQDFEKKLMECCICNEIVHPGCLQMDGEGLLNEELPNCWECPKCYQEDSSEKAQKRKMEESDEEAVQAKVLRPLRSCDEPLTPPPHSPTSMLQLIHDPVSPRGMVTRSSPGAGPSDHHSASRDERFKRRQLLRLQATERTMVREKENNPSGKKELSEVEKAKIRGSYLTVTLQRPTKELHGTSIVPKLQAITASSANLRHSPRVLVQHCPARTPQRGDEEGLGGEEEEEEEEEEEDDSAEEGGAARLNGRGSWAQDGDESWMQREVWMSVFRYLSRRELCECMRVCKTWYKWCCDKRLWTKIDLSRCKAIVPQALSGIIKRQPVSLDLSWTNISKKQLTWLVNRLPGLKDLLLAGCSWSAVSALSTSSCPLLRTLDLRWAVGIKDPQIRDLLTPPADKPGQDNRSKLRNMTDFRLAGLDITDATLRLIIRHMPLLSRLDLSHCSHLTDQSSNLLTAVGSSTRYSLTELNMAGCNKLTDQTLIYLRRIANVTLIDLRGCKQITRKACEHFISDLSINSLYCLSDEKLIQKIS
Chain of UniProt Q9H227 (whole entry, looked up): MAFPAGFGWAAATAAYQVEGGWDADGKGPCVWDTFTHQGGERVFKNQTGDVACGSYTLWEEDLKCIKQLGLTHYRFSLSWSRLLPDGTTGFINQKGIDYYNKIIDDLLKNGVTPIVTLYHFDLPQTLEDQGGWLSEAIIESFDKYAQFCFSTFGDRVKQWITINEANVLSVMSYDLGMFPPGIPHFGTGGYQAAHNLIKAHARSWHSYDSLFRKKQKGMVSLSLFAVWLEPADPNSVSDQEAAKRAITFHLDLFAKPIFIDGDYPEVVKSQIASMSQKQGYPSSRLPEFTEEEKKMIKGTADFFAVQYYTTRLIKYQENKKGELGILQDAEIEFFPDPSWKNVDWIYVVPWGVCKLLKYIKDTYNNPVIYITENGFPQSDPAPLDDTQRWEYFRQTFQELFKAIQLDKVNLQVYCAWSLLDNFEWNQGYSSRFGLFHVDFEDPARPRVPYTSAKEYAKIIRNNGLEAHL
Chain of UniProt P18031 (whole entry, looked up): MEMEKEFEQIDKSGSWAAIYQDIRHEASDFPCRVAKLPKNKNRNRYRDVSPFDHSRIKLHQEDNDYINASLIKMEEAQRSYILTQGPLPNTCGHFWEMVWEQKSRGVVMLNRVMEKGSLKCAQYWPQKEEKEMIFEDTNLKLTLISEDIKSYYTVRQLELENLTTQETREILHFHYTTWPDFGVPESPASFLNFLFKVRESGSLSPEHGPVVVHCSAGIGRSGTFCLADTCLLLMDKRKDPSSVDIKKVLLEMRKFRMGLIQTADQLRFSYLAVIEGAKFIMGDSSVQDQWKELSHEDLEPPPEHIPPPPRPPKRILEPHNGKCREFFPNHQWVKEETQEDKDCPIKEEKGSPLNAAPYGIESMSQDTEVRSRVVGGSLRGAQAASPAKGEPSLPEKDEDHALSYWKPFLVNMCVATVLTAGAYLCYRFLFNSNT
Chain of UniProt P56817 (whole entry, looked up): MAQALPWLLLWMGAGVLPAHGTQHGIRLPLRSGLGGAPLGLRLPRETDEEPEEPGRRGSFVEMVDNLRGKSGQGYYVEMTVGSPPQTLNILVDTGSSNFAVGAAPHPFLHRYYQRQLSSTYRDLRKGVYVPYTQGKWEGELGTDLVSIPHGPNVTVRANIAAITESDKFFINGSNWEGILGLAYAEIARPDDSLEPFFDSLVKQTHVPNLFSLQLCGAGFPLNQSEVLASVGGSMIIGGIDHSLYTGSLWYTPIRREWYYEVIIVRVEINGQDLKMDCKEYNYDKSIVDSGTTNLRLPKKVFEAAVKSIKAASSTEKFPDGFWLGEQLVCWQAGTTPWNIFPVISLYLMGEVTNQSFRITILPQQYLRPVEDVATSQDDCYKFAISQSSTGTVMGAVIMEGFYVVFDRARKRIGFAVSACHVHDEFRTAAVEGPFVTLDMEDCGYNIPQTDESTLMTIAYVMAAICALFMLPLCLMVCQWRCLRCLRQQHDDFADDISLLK
Chain of UniProt Q12908 (whole entry, looked up): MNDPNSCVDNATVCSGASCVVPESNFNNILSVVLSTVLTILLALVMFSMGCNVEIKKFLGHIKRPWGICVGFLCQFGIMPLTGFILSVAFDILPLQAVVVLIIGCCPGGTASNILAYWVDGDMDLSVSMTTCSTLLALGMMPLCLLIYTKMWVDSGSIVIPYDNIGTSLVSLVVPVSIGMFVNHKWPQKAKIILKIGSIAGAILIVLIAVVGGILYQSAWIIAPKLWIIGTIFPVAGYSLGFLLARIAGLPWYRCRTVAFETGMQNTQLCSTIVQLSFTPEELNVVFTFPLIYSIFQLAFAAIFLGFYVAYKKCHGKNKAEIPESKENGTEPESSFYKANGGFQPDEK
Chain of UniProt P61169 (whole entry, looked up): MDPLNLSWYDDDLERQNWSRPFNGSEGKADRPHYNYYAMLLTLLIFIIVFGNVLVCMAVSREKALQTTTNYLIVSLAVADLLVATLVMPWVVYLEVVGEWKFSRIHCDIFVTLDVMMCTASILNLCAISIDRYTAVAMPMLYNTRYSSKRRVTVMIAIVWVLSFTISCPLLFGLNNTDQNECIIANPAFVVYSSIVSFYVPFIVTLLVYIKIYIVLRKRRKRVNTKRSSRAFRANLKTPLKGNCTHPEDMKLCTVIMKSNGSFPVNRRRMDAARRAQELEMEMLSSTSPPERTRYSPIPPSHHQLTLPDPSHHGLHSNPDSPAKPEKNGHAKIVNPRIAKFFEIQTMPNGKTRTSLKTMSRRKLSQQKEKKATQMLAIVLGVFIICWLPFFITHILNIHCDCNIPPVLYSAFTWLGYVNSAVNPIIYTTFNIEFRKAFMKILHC

Structure (SMILES) = CCC(=O)NCc1cc(C(=O)NCCN2CCN(CCCCC3CCN(CC(=O)N4c5ccccc5NC(=O)c5ccccc54)CC3)CC2)cc(C(=O)NCCN2CCN(CCOC(=O)C3c4ccccc4Oc4ccccc43)CC2)c1; target = CHRM3; observed = ligand displacement; method = radioligand; Ki = 19.1 nM
Structure (SMILES) = C[C@H](CCC(=O)O)[C@H]1CC[C@H]2[C@@H]3[C@@H](OC(=O)c4ccccc4)C[C@H]4C[C@H](O)CC[C@]4(C)[C@H]3CC[C@]12C; target = SLC10A2 (Homo sapiens, UniProt Q12908); observed = transporter uptake; action = inhibitor; method = radiometric; Ki = 8190 nM
Structure (SMILES) = O=C1Nc2ccccc2N(C(=O)CN2CCC(CCCCN3CCN(CCCCOC(=O)C4c5ccccc5Oc5ccccc54)CC3)CC2)c2ccccc21; target = CHRM1; observed = ligand displacement; method = radioligand; Ki = 24 nM
Structure (SMILES) = CC(=O)N[C@H](C(=O)N[C@@H](CCCCN)C(=O)N[C@H](C=O)CC(=O)O)C(C)C; target = CASP3; observed = enzyme activity; action = inhibitor; method = fluorescence; pH = pH 7; Ki = > 100000 nM
Structure (SMILES) = CCCCCCOc1ccc(C(=O)OCC[N+]2(C)CC=CCC2)cc1 (stereo not drawn); target = CHRM3; observed = ligand displacement; method = radioligand; setting = cell membranes; Ki = 417 nM
Structure (SMILES) = CC(=O)N[C@H](C(=O)N[C@@H](CC(=O)O)C(=O)N[C@H](C(=O)N[C@H](CCN)C(=O)N[C@H](C=O)CC(=O)O)C(C)C)C(C)C; target = CASP3; observed = enzyme activity; action = inhibitor; method = fluorescence; pH = pH 7; Ki = > 100000 nM
Structure (SMILES) = CC1(C)CC(=O)C=C(Sc2nc3cc(Cl)ccc3s2)C1; target = KDM4A (Homo sapiens, UniProt O75164); observed = ligand displacement; method = FP; Ki = > 200000 nM
Structure (SMILES) = CN1CCC=C(c2nsnc2OCCCCCNC(=O)CCCCCCC(=O)NCCCCCOc2nsnc2C2=CCCN(C)C2)C1; target = CHRM1; observed = ligand displacement; method = radioligand; Ki = 5.01 nM
Structure (SMILES) = COC(=O)[C@H](CCCC[N+](C)(C)CCCCN(O)C(=O)/C=C/C(=O)O)NC(=O)OCc1ccccc1; target = KDM2A (Homo sapiens, UniProt Q9Y2K7); observed = ligand displacement; method = FP; Ki = 3100 nM
Structure (SMILES) = OC[C@@H]1[C@@H](O)[C@H](O)[C@@H](O)CN1CCCCCOCC1CCCO1 (stereo partly drawn); target = GBA3 (Homo sapiens, UniProt Q9H227); observed = enzyme activity; action = inhibitor; Ki = 145000 nM
Structure (SMILES) = C[C@@H]1O[C@@H](O[C@@H]2C(=O)c3c(O)cc(O)cc3O[C@@H]2c2ccc(O)cc2)[C@H](O)[C@H](O)[C@H]1O; target = PTPN1 (Homo sapiens, UniProt P18031); observed = enzyme activity; action = inhibitor; Ki = 3200 nM
Structure (SMILES) = CCC(=O)NCc1cc(C(=O)NCCN2CCC(OC(=O)C(c3ccccc3)c3ccccc3)CC2)cc(C(=O)NCCN2CCN(CCCCC3CCN(CC(=O)N4c5ccccc5NC(=O)c5ccccc54)CC3)CC2)c1; target = CHRM3; observed = ligand displacement; method = radioligand; Ki = 30.2 nM
Structure (SMILES) = c1cc(N2CCN(CCCOc3ccc(CN4CCCCC4)cc3)CC2)c2ccsc2c1; target = Drd2 (Rattus norvegicus, UniProt P61169); observed = cell-free assay; method = radioligand; Ki = 138 nM
Structure (SMILES) = Nc1nc(O)c2[nH]cc(CN[C@H](CO)CCP(=O)(O)O)c2n1; target = Hypoxanthine-guanine phosphoribosyltransferase (Trypanosoma cruzi, UniProt Q4DGA3); Ki = 15 ± 2 nM
Structure (SMILES) = Cc1cc(C(=O)N[C@@H](Cc2ccccc2)[C@H](O)CN[C@H](C(=O)NCC(C)C)[C@H](C)O)cc(C(=O)N[C@H](C)c2ccccc2)c1; target = Beta-secretase 1 (BACE1, Homo sapiens, UniProt P56817); Ki = 731 ± 65 nM
